Measured values pooled from the literature.
± marks the error that the study gave.
Cell line: human PBMC

SMILES | assay | setting | measurement | result
N/C(=N\O)c1ccc(-c2cc(CNc3cccc4cccnc34)on2)cc1 | cell growth or viability, MTS | – | IC50 | > 100000 nM
C=CCN(/C=C1/C(=O)O[C@H](COC)[C@@]2(C)C1=C(O)C(=O)C1=C2[C@H](OC(C)=O)C[C@]2(C)C(=O)CC[C@@H]12)CC=C | T cell expansion, resazurin | 7 days, added: concanavalin A 2 µg/mL | EC50 | 1200 nM
Nc1nc2ccccc2c2c1nc(CCCc1nc3c(N)nc4ccccc4c3n1Cc1ccccc1)n2Cc1ccccc1 | cytokine and chemokine release, antagonist | 12 h, added: CL075 10 µg/mL | IC50 | 50 to 300 nM
C=CC(=O)N1CCC[C@@H]1Cn1c(NC(=O)c2ccc(C(F)F)s2)nc2cc(CN[C@@H](C)C(C)(C)C)ccc21 | IL-2 production, AlphaLISA | 18 h, added: anti-CD3/CD28 | IC50 | 8.7 ± 2.1 nM
CCc1cc(Nc2nccc(-c3c(-c4ccc(OC)c(C(=O)Nc5c(F)cccc5F)c4)nc4ccccn34)n2)c(OC)cc1N1CCC(N2CCN(S(C)(=O)=O)CC2)CC1 | T cell expansion, resazurin | 7 days, added: concanavalin A 2 µg/mL | EC50 | 13900 nM
Cc1[nH]c2ccccc2c1CCNCc1ccc(/C=C/C(=O)NO)cc1 | cell viability, CellTiter-Glo | 72 h | IC50 | < 20 nM
C=C(Br)C(=O)Nc1cccc(/C=C/C(=O)Nc2ccc(N3CCOCC3)cc2)c1 | cell growth or viability, MTT | 72 h | IC50 | 3500 to 4000 nM
O=C(N=P12CN3CN(CN(C3)C1)C2)c1ccccc1Br | cytotoxicity, MTT | 24 h, 1% DMSO | IC50 | > 500000 nM
N#CC(=C(/N)Sc1ccccc1N)/C(C#N)=C(/N)Sc1ccccc1N | T cell expansion, resazurin | 7 days, added: concanavalin A 2 µg/mL | EC50 | 1920 nM
Cc1ccc(NC(=O)c2ccc3c(c2)CC[C@@H]3N2CCN(C)CC2)cc1C#Cc1cnc2ccc(Cl)nn12 | cell growth | 72 h | IC50 | > 1000 nM

Repeated from above:
SMILES | assay | setting | measurement | result
N/C(=N\O)c1ccc(-c2cc(CNc3cccc4cccnc34)on2)cc1 | cell growth or viability, MTS | – | IC50 | > 100000 nM
